Published values pooled from the literature.
Compare with care: the assays were run in different laboratories.
Target: TRAF2 and NCK-interacting protein kinase (TNIK, Homo sapiens, UniProt Q9UKE5)

| SMILES | assay | setting | scale | endpoint | value |
| --- | --- | --- | --- | --- | --- |
| COc1cc(Nc2nccc(-c3cnn4nc(OC)ccc34)n2)cc(C(F)(F)F)c1 | binding, competition with immobilised ligand | 1 µM |  | remaining binding | 100% |
| Nc1ncc(-c2cc(-c3cnn(CC(F)(F)F)c3)ncc2F)nc1C(=O)NC1CNCC(F)C1 (centres unmarked) | enzyme activity | 1 µM | relative to: DMSO control | remaining activity | 91.5% |
| C=CC(=O)Nc1cccc(-c2cnc3[nH]cc(C(=O)NC(C)(C)C)c3n2)c1 | enzyme activity, inhibitor | 0.1 µM |  | inhibition | 35% |
| O=C(Cc1ccc(OCc2ccccc2)cc1)NC1(C(=O)O)CCN(C(=O)c2ccc(-c3cccc(Cl)c3)cc2)CC1 | enzyme activity, inhibitor | 10 µM |  | activity vs control | 155% |
| NC(=O)C[C@H]1CCc2sc3ncnc(O[C@H]4CC[C@H](N5CCOCC5)CC4)c3c21 | enzyme activity, inhibitor | 10 µM |  | inhibition | 26% |
| CN1CCN(Cc2ccc(-c3ccc(CO[C@H]4CCC[C@@H]4NC(=O)c4cc(-c5cnn(C)c5)cnc4N)cc3)cc2)CC1 | enzyme activity, inhibitor | 0.1 µM |  | inhibition | 8% |
| Cc1ccc(-c2c(/C=C(\C#N)C(=O)NC(C)C)n(CCCO)c3ncnc(N)c23)cc1 | cell-free assay, competition with immobilised ligand | 1 µM |  | remaining binding | 83% |
| C=CC(=O)N1Cc2nc(-c3cc(-c4cc(Cl)cnc4Cl)c(F)cc3F)n(-c3ccncn3)c2C1 | cell-free assay, inhibitor | 1 µM |  | inhibition | 12.9% |
| CCN1CCN(Cc2ccc(C(=O)Nc3ccc(C)c(NCc4cnc5[nH]ccc5c4OC)c3)cc2C(F)(F)F)CC1 | binding, competition with immobilised ligand | 1 µM |  | remaining binding | 15% |
| Nc1ncc2c(n1)-c1c([nH]c3ccc(C4=CCOCC4)cc13)CCC2 | binding, competition with immobilised ligand | 1 µM |  | remaining binding | 59% |
| CCN1CCN(Cc2ccc(NC(=O)c3ccc(C)c(NC(=O)c4cncc(-c5cnn(C)c5)c4)c3)cc2C(F)(F)F)CC1 | binding, competition with immobilised ligand | 1 µM |  | remaining binding | 51% |
| CCn1cc(C(=O)O)c(=O)c2c(N)c(F)c(NC3CCCCC3)cc21 | kinase activity | 0.1 µM, added: ATP at Km |  | inhibition | 2% |
| CNC1C[S+]2CC[S+]3CC[S+](C1)[Ru-4]321([N]=C=S)[n]2c3ccc(OC)cc3c3c4c(c5cc(F)c[n+]1c5c32)C(=O)NC4=O (centres unmarked) | KinomeScan | 0.1 µM | relative to: untreated | remaining binding | 47% |
| Cc1cccc(O[C@H]2CCC[C@@H](C(C)CNCc3ccncc3)C2)c1 (relative stereo) | enzyme activity, inhibitor | 1 µM |  | inhibition | 0% |

Repeated from above:
| SMILES | assay | setting | scale | endpoint | value |
| --- | --- | --- | --- | --- | --- |
| CNC1C[S+]2CC[S+]3CC[S+](C1)[Ru-4]321([N]=C=S)[n]2c3ccc(OC)cc3c3c4c(c5cc(F)c[n+]1c5c32)C(=O)NC4=O (centres unmarked) | KinomeScan | 0.1 µM | relative to: untreated | remaining binding | 47% |
